Published values pooled from the literature.
Each line is one published result; not all experiments were run side by side. Numbers after ± are the reported error.

Compound | assay | system | setting | tissue uptake
N#C[C@@H]1CCCN1C(=O)CNC(=O)c1ccnc2ccc(OCCCN3CCN(C(=O)CCc4ccc5c(c4)CN4CCN(Cc6cc(CCC(=O)O)ccc6O)CC(=O)[O][Al-]([18F])([O]C(=O)C4)[O]5)CC3)cc12 (some centres unmarked) | – | BALB/c nude mice, U-87 MG xenograft, kidney | 2 h | 1.27 ± 0.24 %ID/g
COc1ccc(Nc2nc(Nc3ccc(OCCOCCOCC[18F])cc3)ncc2Br)cc1 | – | ICR mice, S180 tumour-bearing, bone | intravenous, 370 kBq, 5 min | 3.16 ± 0.16 %ID/g
CC(C)C[C@H](NC(=O)[C@@H](CCCCNC(=O)[C@@H](Cc1ccccc1)NC(=O)CCCCCCCNC(=O)CN1CCN(CC(=O)O)CCN(CC(=O)O)CCN(CC(=O)O)CC1)NC(=O)[C@H](Cc1ccc(O)cc1)NC(=O)[C@H](CO)NC(=O)[C@H](Cc1c[nH]c2ccccc12)NC(=O)[C@H](Cc1c[nH]cn1)NC(=O)[C@@H]1CCC(=O)N1)C(=O)N[C@@H](CCCNC(=N)N)C(=O)N1CCC[C@H]1C(=O)NCC(N)=O [indium-111 labelled] | biodistribution | male athymic nude mice, DU-145 prostate cancer xenograft, pancreas | intravenous, 0.037 MBq, 1 h post-injection | 0.32 ± 0.07 %ID/g
CCCC[C@H](NC(=O)CNC(=O)CNC(=O)[C@H](CCCCNC(=O)[C@H](CC(=O)O)NC(=O)C(C)c1ccc(CC(C)C)cc1)NC(=O)CN1CCN(CC(=O)O)CCN(CC(=O)O)CCN(CC(=O)O)CC1)C(=O)N[C@H]1CC(=O)NCCCC[C@@H](C(N)=O)NC(=O)[C@H](Cc2c[nH]c3ccccc23)NC(=O)[C@H](CCCNC(=N)N)NC(=O)[C@@H](Cc2ccccc2)NC(=O)[C@H](Cc2c[nH]cn2)NC1=O (some centres unmarked) [lutetium-177 labelled] | – | C57 mice, tumour-bearing, liver | intravenous, 0.037 MBq, 0.5 h | 5 ± 0.37 %ID/g
O=C(NCC1OC2CCC=CCCC2O1)c1ccc(COCCOCCOCC[18F])cc1 (centres unmarked) | – | healthy female BALB/c nude mice, heart | intravenous, 7.4 MBq per mouse, 30 min | 1.8 ± 0.7 %ID/g
COc1ccc(Nc2nc(Nc3ccc(OCCOCC[18F])cc3)ncc2Br)cc1 | – | ICR mice, S180 tumour, stomach | intravenous, 370 kBq, 30 min | 0.51 ± 0.01 %ID
CCCC[C@H](NC(=O)COCCOCCNC(=O)CN1CCN(CC(=O)O)CCN(CC(=O)O)CC1)C(=O)N[C@H]1CC(=O)NCCCC[C@@H](C(N)=O)NC(=O)[C@H](Cc2c[nH]c3ccccc23)NC(=O)[C@H](CCCNC(=N)N)NC(=O)[C@@H](Cc2ccccc2)NC(=O)[C@H](Cc2c[nH]cn2)NC1=O [fluorine-18 labelled] | – | C57 mice B16-F10 melanoma, kidneys | intravenous, 0.37 MBq, 0.5 h | 7.55 ± 1.13 %ID/g
O=C(NCC1OC2CCC=CCCC2O1)c1ccc([18F])nc1 (centres unmarked) | – | female BALB/c nude mice, LS174T tumour, blood | intravenous, 60 min, together with: unmodified CC49 24 h before | 0.8 ± 0.2 %ID/g
CCCC[C@H](NC(=O)CCCCCCCNC(=O)CN1CCN(CC(=O)O)CCN(CC(=O)O)CC1)C(=O)N[C@H]1CC(=O)NCCCC[C@@H](C(N)=O)NC(=O)[C@H](Cc2c[nH]c3ccccc23)NC(=O)[C@H](CCCNC(=N)N)NC(=O)[C@@H](Cc2ccccc2)NC(=O)[C@H](Cc2c[nH]cn2)NC1=O [fluorine-18 labelled] | – | C57 mice B16-F10 melanoma, pancreas | intravenous, 0.37 MBq, 2 h | 0.18 ± 0.13 %ID/g
O=C([O-])CN1CCN(CC(=O)[O-])CCN(CC(=O)NC[C@H]2CC[C@H](C(=O)N[C@H](Cc3cnc4ccccc4c3)C(=O)NCCCC[C@H](NC(=O)N[C@@H](CCC(=O)O)C(=O)O)C(=O)O)CC2)CCN(CC(=O)[O-])CC1.[64Cu+2] | ex vivo gamma counting | 22Rv1 tumour-bearing mice, liver | intravenous, 0.74 MBq, 24 h post-injection | 16.8 %ID/g
Cc1cc(C)n(CCN(CCN)CCCCCCNC(=O)[C@@H](N)Cc2c[nH]cn2)n1.[99Tc+].[C-]#[O+].[C-]#[O+].[C-]#[O+] | – | BALB/c nude mice, MCF7 xenograft, intestine | intravenous, 4 h | 6.37 ± 0.82 %IA/g

Some of these lines once more:
Compound | assay | system | setting | tissue uptake
N#C[C@@H]1CCCN1C(=O)CNC(=O)c1ccnc2ccc(OCCCN3CCN(C(=O)CCc4ccc5c(c4)CN4CCN(Cc6cc(CCC(=O)O)ccc6O)CC(=O)[O][Al-]([18F])([O]C(=O)C4)[O]5)CC3)cc12 (some centres unmarked) | – | BALB/c nude mice, U-87 MG xenograft, kidney | 2 h | 1.27 ± 0.24 %ID/g
